Assay results of several laboratories.
Protocols differ between the studies behind these lines. ± gives the spread as reported.
Action: inhibitor
XDH: Xanthine dehydrogenase/oxidase (XDH, Bos taurus, UniProt P80457)
Sequence of UniProt P80457 (whole entry, looked up): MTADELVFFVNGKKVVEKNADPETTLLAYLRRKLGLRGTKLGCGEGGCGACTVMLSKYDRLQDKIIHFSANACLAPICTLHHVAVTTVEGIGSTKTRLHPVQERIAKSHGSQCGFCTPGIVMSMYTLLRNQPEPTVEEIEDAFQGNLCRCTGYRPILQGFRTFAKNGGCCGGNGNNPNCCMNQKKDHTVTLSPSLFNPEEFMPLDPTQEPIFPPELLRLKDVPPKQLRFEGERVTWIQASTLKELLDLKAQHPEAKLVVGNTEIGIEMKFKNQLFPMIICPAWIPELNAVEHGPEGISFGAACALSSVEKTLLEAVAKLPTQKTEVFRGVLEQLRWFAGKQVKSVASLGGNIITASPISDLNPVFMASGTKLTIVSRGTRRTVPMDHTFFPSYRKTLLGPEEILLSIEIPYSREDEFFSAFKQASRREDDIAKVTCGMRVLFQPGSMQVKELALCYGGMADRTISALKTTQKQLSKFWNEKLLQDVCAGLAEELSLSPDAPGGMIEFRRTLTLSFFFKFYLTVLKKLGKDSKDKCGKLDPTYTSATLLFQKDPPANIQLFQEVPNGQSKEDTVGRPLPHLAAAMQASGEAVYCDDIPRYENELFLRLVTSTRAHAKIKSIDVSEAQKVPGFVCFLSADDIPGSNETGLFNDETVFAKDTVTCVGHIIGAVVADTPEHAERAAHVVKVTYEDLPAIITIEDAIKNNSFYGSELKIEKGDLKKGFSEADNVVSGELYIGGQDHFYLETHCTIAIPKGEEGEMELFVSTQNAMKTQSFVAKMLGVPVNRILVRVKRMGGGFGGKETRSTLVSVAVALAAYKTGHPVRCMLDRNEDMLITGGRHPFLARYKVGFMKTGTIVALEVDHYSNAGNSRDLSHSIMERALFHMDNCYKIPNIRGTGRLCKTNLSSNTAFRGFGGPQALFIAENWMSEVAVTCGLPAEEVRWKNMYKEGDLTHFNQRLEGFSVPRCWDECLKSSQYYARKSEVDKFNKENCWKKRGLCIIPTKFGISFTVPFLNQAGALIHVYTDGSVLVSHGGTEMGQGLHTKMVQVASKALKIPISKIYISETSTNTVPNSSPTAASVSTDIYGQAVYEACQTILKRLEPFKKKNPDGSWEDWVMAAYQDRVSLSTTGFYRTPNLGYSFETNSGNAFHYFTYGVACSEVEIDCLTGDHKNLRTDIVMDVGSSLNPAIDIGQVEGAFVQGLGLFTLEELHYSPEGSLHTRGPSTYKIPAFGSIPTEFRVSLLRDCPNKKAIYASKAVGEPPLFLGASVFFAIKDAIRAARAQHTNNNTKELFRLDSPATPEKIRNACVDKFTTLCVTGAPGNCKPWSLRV
XDH oxidase form: Xanthine dehydrogenase/oxidase, oxidase form (XDH, Bos taurus, UniProt P80457)

Structure (SMILES) | target | test | conditions | IC50 [µM]
O=C(/C=C/c1ccc(O)c(O)c1)O[C@@H]1[C@H](O)C[C@@](O)(C(=O)O)C[C@H]1OC(=O)/C=C/c1ccc(O)c(O)c1 | XDH | enzyme activity |  | 69.4
Cc1nc2ccccc2c(=O)n1N | XDH | enzyme activity |  | 340 ± 4.95
O=C1C=C(c2ccc(O)c(O)c2)C(O)O1 (centres unmarked) | XDH | enzyme activity, absorbance |  | 367
COc1c(C)c(-c2cc(O)c3c(c2O)C(=O)C(C)=CC3=O)c(OC)c2c1C(=O)C=CC2=O | XDH | enzyme activity, absorbance |  | 1.09
Cc1ccc(/N=C/c2ccccc2O)cc1 | XDH | enzyme activity |  | 149
COC(=O)[C@]1(O)C[C@@H](OC(=O)/C=C/c2ccc(O)c(O)c2)[C@@H](O)[C@H](OC(=O)/C=C/c2ccc(O)c(O)c2)C1 | XDH | enzyme activity |  | 92.1
COc1ccc(/C=C/c2cc(O)cc(O)c2)cc1O | XDH | superoxide generation | pH 10.0, 25 °C, together with: 200 µM xanthine | 6 ± 1
NNC(=O)Cn1nnc2ccccc21 | XDH oxidase form | enzyme activity |  | ≤ 523
C[C@@H]1O[C@@H](OC[C@H]2O[C@@H](Oc3cc(O)c4c(=O)cc(-c5ccc(O)c(O)c5)oc4c3)[C@H](O)[C@@H](O)[C@@H]2O)[C@H](O)[C@H](O)[C@H]1O | XDH | enzyme activity, absorbance |  | 19.3
COc1cc(/C=C/c2cc(O)cc(O)c2)ccc1O | XDH | enzyme activity, absorbance | pH 10 | 99
Nn1c(Cn2nnc3ccccc32)n[nH]c1=S | XDH oxidase form | enzyme activity |  | ≤ 404
OCC1OC(Oc2ccc(C=Cc3cc(O)cc(O)c3)cc2)C(O)C(O)C1O (centres unmarked) | XDH | superoxide generation | pH 10.0, 25 °C, together with: 200 µM xanthine | 11 ± 2
c1ccc2[nH]nnc2c1 | XDH oxidase form | enzyme activity |  | ≤ 839
COc1ccc(CCO[C@@H]2O[C@H](CO)[C@@H](OC(=O)/C=C/c3ccc(O)c(OC)c3)[C@H](O[C@@H]3O[C@@H](C)[C@H](O)[C@@H](O)[C@H]3O)[C@H]2O)cc1O | XDH | enzyme activity, absorbance |  | 64.5

Some of these lines once more:
Structure (SMILES) | target | test | conditions | IC50 [µM]
O=C(/C=C/c1ccc(O)c(O)c1)O[C@@H]1[C@H](O)C[C@@](O)(C(=O)O)C[C@H]1OC(=O)/C=C/c1ccc(O)c(O)c1 | XDH | enzyme activity |  | 69.4
COc1ccc(/C=C/c2cc(O)cc(O)c2)cc1O | XDH | superoxide generation | pH 10.0, 25 °C, together with: 200 µM xanthine | 6 ± 1
